Earlier results that unrelated publications cite.
Protocols differ between the studies behind these lines. ± marks the error that the study gave.
Sequence of UniProt P23977 (whole entry, looked up): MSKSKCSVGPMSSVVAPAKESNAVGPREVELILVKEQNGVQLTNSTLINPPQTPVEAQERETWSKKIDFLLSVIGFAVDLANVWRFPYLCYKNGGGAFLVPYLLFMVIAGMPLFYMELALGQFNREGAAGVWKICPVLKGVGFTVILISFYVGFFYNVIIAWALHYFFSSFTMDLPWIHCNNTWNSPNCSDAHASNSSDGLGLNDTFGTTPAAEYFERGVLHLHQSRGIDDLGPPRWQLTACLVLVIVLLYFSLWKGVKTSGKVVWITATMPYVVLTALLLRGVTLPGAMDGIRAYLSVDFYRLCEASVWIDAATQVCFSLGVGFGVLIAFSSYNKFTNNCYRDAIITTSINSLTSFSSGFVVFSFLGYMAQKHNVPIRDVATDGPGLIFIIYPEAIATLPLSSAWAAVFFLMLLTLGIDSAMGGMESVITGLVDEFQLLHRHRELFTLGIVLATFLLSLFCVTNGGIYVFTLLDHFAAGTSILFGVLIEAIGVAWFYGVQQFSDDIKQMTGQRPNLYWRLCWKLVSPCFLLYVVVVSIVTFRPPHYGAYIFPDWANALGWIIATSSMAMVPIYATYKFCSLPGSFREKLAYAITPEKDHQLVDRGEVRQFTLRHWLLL
Sequence of UniProt Q63008 (whole entry, looked up): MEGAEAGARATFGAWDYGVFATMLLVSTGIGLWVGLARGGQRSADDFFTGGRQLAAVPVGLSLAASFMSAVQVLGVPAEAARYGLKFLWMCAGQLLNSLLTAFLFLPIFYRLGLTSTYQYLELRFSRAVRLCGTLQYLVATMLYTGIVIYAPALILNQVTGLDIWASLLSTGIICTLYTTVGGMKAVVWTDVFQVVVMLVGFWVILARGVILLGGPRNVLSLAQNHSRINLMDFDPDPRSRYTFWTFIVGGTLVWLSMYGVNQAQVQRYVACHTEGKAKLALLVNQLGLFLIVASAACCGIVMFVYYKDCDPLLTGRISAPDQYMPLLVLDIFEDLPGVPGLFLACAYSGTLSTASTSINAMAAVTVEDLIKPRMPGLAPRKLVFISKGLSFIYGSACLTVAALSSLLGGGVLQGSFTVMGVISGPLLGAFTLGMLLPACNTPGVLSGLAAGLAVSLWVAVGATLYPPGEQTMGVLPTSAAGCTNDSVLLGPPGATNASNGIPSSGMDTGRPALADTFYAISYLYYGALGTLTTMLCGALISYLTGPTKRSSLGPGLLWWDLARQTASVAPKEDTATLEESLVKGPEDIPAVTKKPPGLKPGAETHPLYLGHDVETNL
Sequence of UniProt P28223 (whole entry, looked up): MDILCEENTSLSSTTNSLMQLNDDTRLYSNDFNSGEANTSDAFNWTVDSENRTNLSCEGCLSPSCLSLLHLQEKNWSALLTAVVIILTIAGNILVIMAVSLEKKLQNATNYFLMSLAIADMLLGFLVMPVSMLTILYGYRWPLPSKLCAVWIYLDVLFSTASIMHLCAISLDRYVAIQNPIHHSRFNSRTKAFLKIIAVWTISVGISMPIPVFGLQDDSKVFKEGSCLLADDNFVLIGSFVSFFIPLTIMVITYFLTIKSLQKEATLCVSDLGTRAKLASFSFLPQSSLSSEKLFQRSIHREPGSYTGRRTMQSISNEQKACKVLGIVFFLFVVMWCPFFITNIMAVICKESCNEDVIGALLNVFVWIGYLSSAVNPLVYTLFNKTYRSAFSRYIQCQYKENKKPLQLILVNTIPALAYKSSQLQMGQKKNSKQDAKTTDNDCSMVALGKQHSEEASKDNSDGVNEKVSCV
Sequence of UniProt P35372 (whole entry, looked up): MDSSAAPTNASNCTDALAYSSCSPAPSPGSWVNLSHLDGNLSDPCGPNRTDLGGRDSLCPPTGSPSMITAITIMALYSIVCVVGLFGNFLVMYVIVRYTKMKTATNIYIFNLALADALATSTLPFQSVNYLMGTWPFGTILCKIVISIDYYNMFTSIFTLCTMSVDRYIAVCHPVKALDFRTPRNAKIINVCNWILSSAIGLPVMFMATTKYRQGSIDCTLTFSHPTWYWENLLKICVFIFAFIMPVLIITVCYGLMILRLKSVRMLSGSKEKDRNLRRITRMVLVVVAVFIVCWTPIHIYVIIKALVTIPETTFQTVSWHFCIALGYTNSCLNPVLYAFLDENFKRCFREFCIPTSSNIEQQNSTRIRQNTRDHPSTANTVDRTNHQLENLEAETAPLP
Sequence of UniProt Q01827 (whole entry, looked up): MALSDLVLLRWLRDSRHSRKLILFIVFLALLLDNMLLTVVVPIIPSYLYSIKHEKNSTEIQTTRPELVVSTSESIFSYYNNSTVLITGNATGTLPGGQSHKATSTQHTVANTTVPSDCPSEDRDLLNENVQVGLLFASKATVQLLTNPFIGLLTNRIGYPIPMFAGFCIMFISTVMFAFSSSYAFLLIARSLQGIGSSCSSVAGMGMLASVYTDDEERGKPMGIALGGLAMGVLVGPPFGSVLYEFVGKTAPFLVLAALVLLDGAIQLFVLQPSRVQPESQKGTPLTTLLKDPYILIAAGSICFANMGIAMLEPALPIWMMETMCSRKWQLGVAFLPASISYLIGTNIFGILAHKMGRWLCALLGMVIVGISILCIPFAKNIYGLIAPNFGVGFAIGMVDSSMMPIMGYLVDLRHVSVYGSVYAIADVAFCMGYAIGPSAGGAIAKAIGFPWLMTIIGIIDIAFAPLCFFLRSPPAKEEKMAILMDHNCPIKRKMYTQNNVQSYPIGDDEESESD

SMILES | target or system | assay | system | conditions | measurement | result
CC(C)OC(=O)[C@H]1[C@@H](c2ccc(I)cc2)C[C@@H]2CC[C@H]1N2C [iodine-125 labelled] | dopamine transporter, high-affinity site, mouse | – | CD-1 mouse striatal membranes | – | Kd | 0.12 nM
CCCCCCCCCCCCCCCCSC1CC(=O)N(CCC(=O)NCCOCCOCCOCCOCCOCCOCCOCCOCCOCCOCCOCCOCCOCCOCCOCCOCCOCCOCCOCCOCCOCCOCCOCCOCCC(=O)NC(COCCC(=O)NCCOCCOCCOCCOCCC(=O)NCCCC[C@@H](NC(=O)CNC(=O)[C@@H](CC(C)C)NC(=O)[C@@H](CCC(=O)O)NC(=O)[C@H]2CSSC[C@@H](NC(=O)[C@H]3CCCN3C(=O)[C@@H](Cc3c[nH]cn3)NC(C)=O)C(=O)N[C@H](CC(=O)O)C(=O)N[C@H](Cc3ccc(O)cc3)C(=O)N3CCC[C@@H]3C(=O)N[C@H](CCC(=O)O)C(=O)N[C@H](Cc3c[nH]c4ccccc34)C(=O)N[C@H](CCC(N)=O)C(=O)N[C@H](Cc3c[nH]c4ccccc34)C(=O)N[C@H](CC(C)C)C(=O)N2)C(N)=O)(COCCC(=O)NCCOCCOCCOCCOCCC(=O)NCCCC[C@@H](NC(=O)CNC(=O)[C@@H](CC(C)C)NC(=O)[C@@H](CCC(=O)O)NC(=O)[C@H]2CSSC[C@@H](NC(=O)[C@H]3CCCN3C(=O)[C@@H](Cc3c[nH]cn3)NC(C)=O)C(=O)N[C@H](CC(=O)O)C(=O)N[C@H](Cc3ccc(O)cc3)C(=O)N3CCC[C@@H]3C(=O)N[C@H](CCC(=O)O)C(=O)N[C@H](Cc3c[nH]c4ccccc34)C(=O)N[C@H](CCC(N)=O)C(=O)N[C@H](Cc3c[nH]c4ccccc34)C(=O)N[C@H](CC(C)C)C(=O)N2)C(N)=O)COCCC(=O)NCCOCCOCCOCCOCCC(=O)NCCCC[C@@H](NC(=O)CNC(=O)[C@@H](CC(C)C)NC(=O)[C@@H](CCC(=O)O)NC(=O)[C@H]2CSSC[C@@H](NC(=O)[C@H]3CCCN3C(=O)[C@@H](Cc3c[nH]cn3)NC(C)=O)C(=O)N[C@H](CC(=O)O)C(=O)N[C@H](Cc3ccc(O)cc3)C(=O)N3CCC[C@@H]3C(=O)N[C@H](CCC(=O)O)C(=O)N[C@H](Cc3c[nH]c4ccccc34)C(=O)N[C@H](CCC(N)=O)C(=O)N[C@H](Cc3c[nH]c4ccccc34)C(=O)N[C@H](CC(C)C)C(=O)N2)C(N)=O)C1=O (some centres unmarked) | HIV-1 | viral entry, luciferase reporter | HOS-CD4-CCR5, JRFL Env pseudovirus | – | IC50 | 0.11 ± 0.012 nM
CNC(C)C(=O)c1ccc2c(c1)OCO2 (centres unmarked) | Transporter (Slc6a2, Rattus norvegicus, UniProt Q63380) | – | – | – | EC50 | 140 ± 17 nM
CN1C/C(=C\c2ccc(Cl)cc2Cl)C/C(=C/c2ccc(Cl)cc2Cl)C1 | Synaptic vesicular amine transporter (Slc18a2, Rattus norvegicus, UniProt Q01827) | binding | – | added: dihydrotetrabenazine site | Ki | 41300 nM
C=CCN(CC=C)CCc1c[nH]c2ccccc12 | 5-hydroxytryptamine receptor 2A (HTR2A, Homo sapiens, UniProt P28223) | binding | cloned human receptor | added: [3H]ketanserin | Ki | 701 nM
C[N@+]1(CC2CC2)CC[C@]23c4c5ccc(O)c4O[C@H]2C(=O)CC[C@@]3(O)[C@H]1C5 | kappa opioid receptor (human) | agonist | – | – | EC50 | > 10000 nM
CCOc1cc(Oc2ccc(C(F)(F)F)cc2Cl)ccc1[N+](=O)[O-] | Sodium/iodide cotransporter (Rattus norvegicus, UniProt Q63008) | iodide uptake, inhibitor | FRTL-5 | – | EC50 | ~2000 nM
C[C@@H](CO)CCC[C@@H](C)[C@H]1CC[C@H]2[C@@H]3CC=C4C[C@@H](O)CC[C@]4(C)[C@H]3CC[C@]12C | LXR | reporter gene, agonist | – | – | EC50 | 1000 to 10000 nM
CC(=O)N[C@H](Cc1c[nH]cn1)C(=O)N1CCC[C@@H]1C(=O)N[C@@H]1CSSC[C@H](C(=O)N[C@H](CCC(=O)O)C(=O)N[C@H](CC(C)C)C(=O)NCC(=O)N[C@H](CCCCNC(=O)CCOCCOCCOCCOCCNC(=O)CCOCC(C)(COCCC(=O)NCCOCCOCCOCCOCCC(=O)NCCCC[C@@H](NC(=O)CNC(=O)[C@@H](CC(C)C)NC(=O)[C@@H](CCC(=O)O)NC(=O)[C@H]2CSSC[C@@H](NC(=O)[C@H]3CCCN3C(=O)[C@@H](Cc3c[nH]cn3)NC(C)=O)C(=O)N[C@H](CC(=O)O)C(=O)N[C@H](Cc3ccc(O)cc3)C(=O)N3CCC[C@@H]3C(=O)N[C@H](CCC(=O)O)C(=O)N[C@H](Cc3c[nH]c4ccccc34)C(=O)N[C@H](CCC(N)=O)C(=O)N[C@H](Cc3c[nH]c4ccccc34)C(=O)N[C@H](CC(C)C)C(=O)N2)C(N)=O)COCCC(=O)NCCOCCOCCOCCOCCC(=O)NCCCC[C@@H](NC(=O)CNC(=O)[C@@H](CC(C)C)NC(=O)[C@@H](CCC(=O)O)NC(=O)[C@H]2CSSC[C@@H](NC(=O)[C@H]3CCCN3C(=O)[C@@H](Cc3c[nH]cn3)NC(C)=O)C(=O)N[C@H](CC(=O)O)C(=O)N[C@H](Cc3ccc(O)cc3)C(=O)N3CCC[C@@H]3C(=O)N[C@H](CCC(=O)O)C(=O)N[C@H](Cc3c[nH]c4ccccc34)C(=O)N[C@H](CCC(N)=O)C(=O)N[C@H](Cc3c[nH]c4ccccc34)C(=O)N[C@H](CC(C)C)C(=O)N2)C(N)=O)C(N)=O)NC(=O)[C@@H](CC(C)C)NC(=O)[C@@H](Cc2c[nH]c3ccccc23)NC(=O)[C@@H](CCC(N)=O)NC(=O)[C@@H](Cc2c[nH]c3ccccc23)NC(=O)[C@@H](CCC(=O)O)NC(=O)[C@H]2CCCN2C(=O)[C@@H](Cc2ccc(O)cc2)NC(=O)[C@@H](CC(=O)O)NC1=O | HIV-1 | viral entry, luciferase reporter | HOS-CD4-CCR5, JRFL Env pseudovirus | – | IC50 | 2.1 ± 0.28 nM
C=CCN(CC=C)CCc1c[nH]c2ccc(F)cc12 | Mu-type opioid receptor (OPRM1, Homo sapiens, UniProt P35372) | – | – | – | Ki | > 10000 nM
CN1[C@@H](CCc2ccccc2)CCC[C@H]1CCc1ccccc1 | Sodium-dependent dopamine transporter (Slc6a3, Rattus norvegicus, UniProt P23977) | inhibitor | – | – | Ki | 1570 nM

Excerpt of the above:
SMILES | target or system | assay | system | conditions | measurement | result
CC(C)OC(=O)[C@H]1[C@@H](c2ccc(I)cc2)C[C@@H]2CC[C@H]1N2C [iodine-125 labelled] | dopamine transporter, high-affinity site, mouse | – | CD-1 mouse striatal membranes | – | Kd | 0.12 nM
